Assay results gathered from unrelated publications.
Each numbered part is a random draw from the data of one study; scales do not carry over between parts.
UniProt P10721, sequence (whole entry, unmodified, looked up): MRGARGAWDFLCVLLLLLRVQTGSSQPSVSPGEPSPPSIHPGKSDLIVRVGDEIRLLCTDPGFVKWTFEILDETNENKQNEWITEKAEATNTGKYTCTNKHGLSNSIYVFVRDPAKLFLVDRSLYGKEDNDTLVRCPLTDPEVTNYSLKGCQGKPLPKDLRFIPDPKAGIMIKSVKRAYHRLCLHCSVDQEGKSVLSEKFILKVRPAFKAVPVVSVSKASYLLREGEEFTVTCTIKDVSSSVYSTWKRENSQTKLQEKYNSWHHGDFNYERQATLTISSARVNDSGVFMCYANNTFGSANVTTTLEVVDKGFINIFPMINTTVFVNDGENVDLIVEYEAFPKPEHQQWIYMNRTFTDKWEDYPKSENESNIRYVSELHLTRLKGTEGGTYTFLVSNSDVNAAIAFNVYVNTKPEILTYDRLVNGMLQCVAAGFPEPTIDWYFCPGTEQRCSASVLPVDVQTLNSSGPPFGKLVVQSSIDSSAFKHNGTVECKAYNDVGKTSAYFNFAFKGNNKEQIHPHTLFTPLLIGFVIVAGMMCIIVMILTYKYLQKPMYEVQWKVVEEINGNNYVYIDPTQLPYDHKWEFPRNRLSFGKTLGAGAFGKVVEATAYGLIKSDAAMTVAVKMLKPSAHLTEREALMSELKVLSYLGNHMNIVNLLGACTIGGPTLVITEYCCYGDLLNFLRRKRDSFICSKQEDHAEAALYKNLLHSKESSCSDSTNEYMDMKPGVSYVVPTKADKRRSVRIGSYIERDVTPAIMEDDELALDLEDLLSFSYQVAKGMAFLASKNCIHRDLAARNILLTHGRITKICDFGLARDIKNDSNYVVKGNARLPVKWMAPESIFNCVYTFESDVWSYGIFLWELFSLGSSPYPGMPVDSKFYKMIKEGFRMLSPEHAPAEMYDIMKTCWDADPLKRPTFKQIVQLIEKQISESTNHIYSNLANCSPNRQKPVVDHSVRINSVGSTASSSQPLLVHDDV
UniProt P08581, sequence (whole entry, looked up): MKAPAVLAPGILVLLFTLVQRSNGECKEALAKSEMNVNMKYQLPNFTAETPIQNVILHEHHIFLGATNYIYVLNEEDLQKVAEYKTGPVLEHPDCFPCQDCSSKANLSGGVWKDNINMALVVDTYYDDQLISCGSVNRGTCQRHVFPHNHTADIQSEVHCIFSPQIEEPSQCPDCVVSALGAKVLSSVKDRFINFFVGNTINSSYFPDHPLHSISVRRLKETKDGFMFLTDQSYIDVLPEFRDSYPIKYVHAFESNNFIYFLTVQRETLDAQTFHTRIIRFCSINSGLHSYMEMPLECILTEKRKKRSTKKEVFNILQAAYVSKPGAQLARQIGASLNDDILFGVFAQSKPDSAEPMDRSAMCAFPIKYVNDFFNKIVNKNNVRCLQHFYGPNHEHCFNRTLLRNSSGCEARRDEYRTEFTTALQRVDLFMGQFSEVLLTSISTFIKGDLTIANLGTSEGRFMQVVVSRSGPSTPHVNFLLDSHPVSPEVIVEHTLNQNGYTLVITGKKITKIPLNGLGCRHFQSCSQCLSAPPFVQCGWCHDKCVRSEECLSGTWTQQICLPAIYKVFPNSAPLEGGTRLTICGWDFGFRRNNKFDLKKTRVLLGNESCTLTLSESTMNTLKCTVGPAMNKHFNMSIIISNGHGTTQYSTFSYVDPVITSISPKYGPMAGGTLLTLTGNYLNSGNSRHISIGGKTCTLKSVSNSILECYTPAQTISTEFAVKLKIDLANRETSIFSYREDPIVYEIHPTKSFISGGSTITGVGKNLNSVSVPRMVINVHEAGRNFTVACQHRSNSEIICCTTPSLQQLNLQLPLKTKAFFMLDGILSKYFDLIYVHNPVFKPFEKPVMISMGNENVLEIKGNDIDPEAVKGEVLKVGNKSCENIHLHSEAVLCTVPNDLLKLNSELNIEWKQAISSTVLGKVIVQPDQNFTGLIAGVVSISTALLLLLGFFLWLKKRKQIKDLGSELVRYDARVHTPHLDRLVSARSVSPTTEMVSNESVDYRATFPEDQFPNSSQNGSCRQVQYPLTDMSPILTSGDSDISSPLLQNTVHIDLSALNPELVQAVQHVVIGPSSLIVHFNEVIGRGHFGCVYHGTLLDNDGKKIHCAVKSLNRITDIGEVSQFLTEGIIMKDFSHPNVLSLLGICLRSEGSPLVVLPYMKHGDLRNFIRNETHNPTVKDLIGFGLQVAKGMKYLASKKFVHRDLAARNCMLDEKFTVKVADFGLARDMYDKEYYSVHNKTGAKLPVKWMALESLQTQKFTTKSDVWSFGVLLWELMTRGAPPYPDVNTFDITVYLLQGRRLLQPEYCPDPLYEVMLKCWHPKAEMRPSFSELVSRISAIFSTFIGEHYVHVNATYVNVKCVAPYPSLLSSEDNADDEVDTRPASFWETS
UniProt Q06187, sequence (whole entry, looked up): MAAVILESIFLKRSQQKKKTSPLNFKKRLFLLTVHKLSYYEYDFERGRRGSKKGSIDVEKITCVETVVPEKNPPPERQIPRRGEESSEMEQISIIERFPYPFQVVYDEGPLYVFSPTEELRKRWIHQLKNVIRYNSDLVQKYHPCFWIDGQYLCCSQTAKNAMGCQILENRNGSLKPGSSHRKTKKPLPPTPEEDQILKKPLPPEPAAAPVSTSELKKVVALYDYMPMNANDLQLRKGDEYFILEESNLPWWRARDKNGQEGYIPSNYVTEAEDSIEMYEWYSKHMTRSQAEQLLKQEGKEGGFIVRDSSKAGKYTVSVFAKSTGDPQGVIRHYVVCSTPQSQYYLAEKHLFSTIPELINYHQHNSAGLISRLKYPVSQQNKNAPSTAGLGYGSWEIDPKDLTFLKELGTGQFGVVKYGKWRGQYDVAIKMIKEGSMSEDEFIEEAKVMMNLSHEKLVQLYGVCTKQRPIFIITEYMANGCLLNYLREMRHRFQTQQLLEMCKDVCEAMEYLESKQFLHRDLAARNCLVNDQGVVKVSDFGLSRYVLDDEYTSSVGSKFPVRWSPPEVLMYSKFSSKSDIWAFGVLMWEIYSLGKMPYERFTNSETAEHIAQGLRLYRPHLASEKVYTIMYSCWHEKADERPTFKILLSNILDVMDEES
UniProt Q9H3Y6, sequence (whole entry, looked up): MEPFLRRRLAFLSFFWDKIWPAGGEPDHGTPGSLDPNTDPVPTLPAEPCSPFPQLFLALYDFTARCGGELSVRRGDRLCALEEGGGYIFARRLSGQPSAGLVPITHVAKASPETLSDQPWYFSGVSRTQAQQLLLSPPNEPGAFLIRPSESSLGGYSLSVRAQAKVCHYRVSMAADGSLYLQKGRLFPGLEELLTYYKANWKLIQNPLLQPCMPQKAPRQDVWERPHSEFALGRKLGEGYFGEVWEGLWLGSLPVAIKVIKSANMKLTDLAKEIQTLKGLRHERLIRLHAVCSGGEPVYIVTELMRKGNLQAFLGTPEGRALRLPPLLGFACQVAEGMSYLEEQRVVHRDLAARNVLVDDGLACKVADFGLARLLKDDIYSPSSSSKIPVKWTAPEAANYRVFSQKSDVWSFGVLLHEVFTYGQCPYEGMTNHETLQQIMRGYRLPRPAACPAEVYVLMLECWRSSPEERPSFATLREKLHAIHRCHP
UniProt P07948, sequence (whole entry, looked up): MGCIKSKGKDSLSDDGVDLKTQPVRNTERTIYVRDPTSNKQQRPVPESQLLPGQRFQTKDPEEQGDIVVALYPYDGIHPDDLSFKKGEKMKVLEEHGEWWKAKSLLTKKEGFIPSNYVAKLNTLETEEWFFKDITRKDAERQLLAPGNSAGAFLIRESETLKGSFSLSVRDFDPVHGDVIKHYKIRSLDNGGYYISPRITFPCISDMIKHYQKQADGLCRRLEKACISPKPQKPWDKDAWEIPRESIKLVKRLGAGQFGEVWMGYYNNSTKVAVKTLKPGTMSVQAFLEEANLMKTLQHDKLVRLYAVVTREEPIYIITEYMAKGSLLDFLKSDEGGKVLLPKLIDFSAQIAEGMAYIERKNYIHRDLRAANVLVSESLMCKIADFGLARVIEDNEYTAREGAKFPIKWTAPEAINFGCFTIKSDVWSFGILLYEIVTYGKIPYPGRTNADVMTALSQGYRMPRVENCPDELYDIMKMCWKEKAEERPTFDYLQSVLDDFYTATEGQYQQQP

Series 1
Target: Bromodomain-containing protein 4, BD1 (BRD4, Homo sapiens, UniProt O60885)
Effect on: acetyl-histone H4 peptide binding
Technique: AlphaScreen displacement
Concentration: 50 µM
With `CC(=O)O.Cn1cc(C2=C(c3cn(CCCN)c4ccccc34)C(=O)NC2=O)c2ccccc21` the inhibition was 93.8%.
`N#CC(=Cc1ccc(F)cc1)c1nc2ccccc2s1` gave an inhibition of 14.7%.
`O=C1Cc2c([nH]c3ccc([N+](=O)[O-])cc23)-c2ccccc2N1` gave an inhibition of 25.6%.
The inhibition of `CCOc1ccc2nc(NC(=O)CCC(=O)O)sc2c1` is reported as 3.2%.
`Cn1cc(C=C2SC(=O)NC2=O)c2ccccc21` gave an inhibition of 3.2%.
`COC(=O)CCNc1ccc(O)c2c1C(=O)c1ccccc1C2=O` gave an inhibition of 86.3%.
`Nc1ccccc1NC(=O)CSc1nc2ccccc2s1` has an inhibition of 17.9%.
For `CC(C)n1cnc2c(NCc3ccccc3O)nc(NCCCO)nc21`, the inhibition was 11.9%.
The inhibition of `CC(c1ccccc1)n1c(=O)[nH]c2ncc(-c3cccnc3)nc21` (stereo not shown) is reported as 17.7%.
`Nc1nc(Nc2cccc(Cl)c2)c2nc[nH]c2n1` has an inhibition of 43%.

Series 2
SMILES: C=CCc1ccc(O)c(-c2ccc(O)c(CC=C)c2)c1
ANO1 del476-501/F628A: Anoctamin-1 (ANO1, Homo sapiens, UniProt Q5XXA6, del476-501/F628A)
UniProt Q5XXA6, sequence (whole entry, unmodified, looked up): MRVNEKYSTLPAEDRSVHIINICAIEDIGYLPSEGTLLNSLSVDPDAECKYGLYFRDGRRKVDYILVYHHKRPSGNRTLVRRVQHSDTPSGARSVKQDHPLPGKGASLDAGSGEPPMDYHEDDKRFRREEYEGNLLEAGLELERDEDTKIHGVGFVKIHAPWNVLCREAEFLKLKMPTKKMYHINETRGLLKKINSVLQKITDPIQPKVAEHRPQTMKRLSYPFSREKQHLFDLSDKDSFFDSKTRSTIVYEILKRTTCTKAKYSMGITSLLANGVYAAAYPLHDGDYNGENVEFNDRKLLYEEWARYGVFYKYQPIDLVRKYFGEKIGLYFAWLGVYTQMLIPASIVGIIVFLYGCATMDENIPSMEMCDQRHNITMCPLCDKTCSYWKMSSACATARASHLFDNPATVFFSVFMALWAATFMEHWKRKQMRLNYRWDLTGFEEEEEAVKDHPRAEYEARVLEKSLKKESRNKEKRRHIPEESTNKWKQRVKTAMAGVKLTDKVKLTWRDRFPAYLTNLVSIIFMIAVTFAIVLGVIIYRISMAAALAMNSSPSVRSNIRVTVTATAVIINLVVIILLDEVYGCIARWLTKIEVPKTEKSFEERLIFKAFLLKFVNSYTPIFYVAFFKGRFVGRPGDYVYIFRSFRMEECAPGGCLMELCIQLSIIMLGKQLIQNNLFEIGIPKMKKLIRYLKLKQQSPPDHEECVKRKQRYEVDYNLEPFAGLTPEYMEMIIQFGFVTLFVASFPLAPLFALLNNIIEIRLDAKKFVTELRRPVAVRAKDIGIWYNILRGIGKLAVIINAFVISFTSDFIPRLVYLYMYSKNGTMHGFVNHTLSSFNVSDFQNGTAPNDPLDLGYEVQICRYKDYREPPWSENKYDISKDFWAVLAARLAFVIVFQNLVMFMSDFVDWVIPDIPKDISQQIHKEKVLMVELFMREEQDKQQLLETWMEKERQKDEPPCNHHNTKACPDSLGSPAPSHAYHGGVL
ANO1 del476-501/F628A; chloride current, whole-cell voltage clamp; 100 µM, I-V at 60 mV, together with: 4 µM Ca2+ — normalized current: 0.14.
ANO1 del476-501/F628A; chloride current, whole-cell voltage clamp; 10 µM, I-V at 40 mV, together with: 4 µM Ca2+ — normalized current: 0.25.
The normalized current was 0.749 (ANO1 del476-501/F628A; chloride current, whole-cell voltage clamp; 1 µM, concentration-response at 80 mV, together with: 4 µM Ca2+).
For Anoctamin-1 (ANO1, Homo sapiens, UniProt Q5XXA6, del476-501/E649A); ion current, inside-out patch clamp; 10 µM, E623A mutant at 80 mV: normalized current read 0.63.
It gave -0.111 for normalized current (ANO1 del476-501/F628A; chloride current, whole-cell voltage clamp; 100 µM, concentration-response at -80 mV, together with: 4 µM Ca2+).
For ANO1 del476-501/F628A; chloride current, whole-cell voltage clamp; 10 µM, concentration-response at 80 mV, together with: 4 µM Ca2+: normalized current read 0.61.
It gave -0.0779 for normalized current (ANO1 del476-501/F628A; chloride current, whole-cell voltage clamp; 100 µM, I-V at -40 mV, together with: 4 µM Ca2+).
It gave -0.529 for normalized current (Anoctamin-1 (ANO1, Homo sapiens, UniProt Q5XXA6, del476-501/R541A); chloride current, inhibitor, inside-out patch clamp; 10 µM, R515A mutant at -80 mV).
Anoctamin-1 (ANO1, Homo sapiens, UniProt Q5XXA6, del476-501/F807A); chloride current, inhibitor, whole-cell voltage clamp; 30 µM; baseline: untreated — normalized current: 0.343.
For ANO1 del476-501/F628A; chloride current, whole-cell voltage clamp; 10 µM, I-V at -40 mV, together with: 4 µM Ca2+: normalized current read -0.24.
For ANO1 del476-501/F628A; chloride current, whole-cell voltage clamp; 10 µM, I-V at 60 mV, together with: 4 µM Ca2+: normalized current read 0.389.
For ANO1 del476-501/F628A; chloride current, whole-cell voltage clamp; 3 µM, I-V at 20 mV, together with: 4 µM Ca2+: normalized current read 0.138.

Series 3
SMILES: CC(=O)c1c(NS(C)(=O)=O)c2cc(-c3ccc(Cl)cc3)c(-c3ccc(Cl)cc3Cl)nc2n(C)c1=O
Effect on: cell-free assay
Technique: competition with immobilised ligand
Concentration: 1 µM
It gave 100% for remaining binding (TNK1 (Homo sapiens, UniProt Q13470)).
For TAOK1 (Homo sapiens, UniProt Q7L7X3): remaining binding read 92%.
EGFR (Homo sapiens, UniProt P00533, G719S) — remaining binding: 100%.
Tyrosine-protein kinase ABL1, non-phosphorylated (ABL1, Homo sapiens, UniProt P00519) — remaining binding: 91%.
For KIT (Homo sapiens, UniProt P10721, T670I/V559D): remaining binding read 100%.
MET (Homo sapiens, UniProt P08581) — remaining binding: 100%.
AKT1 (Homo sapiens, UniProt P31749) — remaining binding: 89%.
It gave 94% for remaining binding (CDKL5 (Homo sapiens, UniProt O76039)).
It gave 87% for remaining binding (Tyrosine-protein kinase ABL1, phosphorylated (ABL1, Homo sapiens, UniProt P00519, M351T)).
It gave 66% for remaining binding (PIKFYVE (Homo sapiens, UniProt Q9Y2I7)).
KIT (Homo sapiens, UniProt P10721) — remaining binding: 100%.
HIPK2 (Homo sapiens, UniProt Q9H2X6) — remaining binding: 87%.
For SRMS (Homo sapiens, UniProt Q9H3Y6): remaining binding read 71%.

Series 4
Structure (SMILES): O=c1cc(N2CCOCC2)oc2c(-c3ccccc3)cccc12
Effect on: enzyme activity
Action: inhibitor
Concentration: 0.5 µM
Baseline: control
The remaining activity was 90.1% (MAP3K10 (Homo sapiens, UniProt Q02779)).
The remaining activity was 103% (STK38 (Homo sapiens, UniProt Q15208)).
The remaining activity was 93.3% (MAPK13 (Homo sapiens, UniProt O15264)).
LRRK2 (Homo sapiens, UniProt Q5S007) — remaining activity: 96.9%.
It gave 102% for remaining activity (AKT3 (Homo sapiens, UniProt Q9Y243)).
The remaining activity was 64.8% (CSNK2A1 (Homo sapiens, UniProt P68400)).
The remaining activity was 97.5% (MAP2K6 (Homo sapiens, UniProt P52564)).
For MKNK2 (Homo sapiens, UniProt Q9HBH9): remaining activity read 103%.
PRKCI (Homo sapiens, UniProt P41743) — remaining activity: 99.5%.
The remaining activity was 95.1% (NEK4 (Homo sapiens, UniProt P51957)).
BTK (Homo sapiens, UniProt Q06187) — remaining activity: 94.5%.
For IRAK4 (Homo sapiens, UniProt Q9NWZ3): remaining activity read 96%.
KIT (Homo sapiens, UniProt P10721) — remaining activity: 92.9%.
For PRKCD (Homo sapiens, UniProt Q05655): remaining activity read 96%.
LYN (Homo sapiens, UniProt P07948) — remaining activity: 94.5%.
For Cyclin-dependent kinase 9, with cyclin T1 (CDK9, Homo sapiens, UniProt P50750): remaining activity read 103%.
The remaining activity was 113% (EPHA5 (Homo sapiens, UniProt P54756)).
The remaining activity was 110% (WNK2 (Homo sapiens, UniProt Q9Y3S1)).
The remaining activity was 98.9% (PLK2 (Homo sapiens, UniProt Q9NYY3)).
CHEK1 (Homo sapiens, UniProt O14757) — remaining activity: 104%.
It gave 104% for remaining activity (MAPK12 (Homo sapiens, UniProt P53778)).
MAP4K2 (Homo sapiens, UniProt Q12851) — remaining activity: 87.8%.
PRKG1 (Homo sapiens, UniProt Q13976) — remaining activity: 105%.

Some of these lines once more (series 4):
The remaining activity was 90.1% (MAP3K10 (Homo sapiens, UniProt Q02779)).
The remaining activity was 113% (EPHA5 (Homo sapiens, UniProt P54756)).
For PRKCD (Homo sapiens, UniProt Q05655): remaining activity read 96%.
